Published values collected from several papers.
Protocols differ between the studies behind these lines. Numbers after ± are the reported error.
SYK tandem SH2 domains: Tyrosine-protein kinase SYK, tandem SH2 domains (SYK, Homo sapiens, UniProt P43405)
crk3 with CYC6: crk3, with CYC6 (Leishmania mexicana, UniProt O15851)
PDE1C: Dual specificity calcium/calmodulin-dependent 3',5'-cyclic nucleotide phosphodiesterase 1C (PDE1C, Homo sapiens, UniProt Q14123)
Urease: Urease (Canavalia ensiformis, UniProt P07374)
SNCA pre-formed fibrils: Alpha-synuclein, pre-formed fibrils (SNCA, Homo sapiens, UniProt P37840)
MAL12: Alpha-glucosidase MAL12 (MAL12, Saccharomyces cerevisiae S288c, UniProt P53341)
DNA polymerase catalytic subunit: DNA polymerase catalytic subunit (Human cytomegalovirus, UniProt P08546)
Proteasome subunit beta type-10: Proteasome subunit beta type-10 (Homo sapiens, UniProt P40306)

Cn1c(=O)c2c(nc(S)n2C)n(C)c1=O — IC50 (SYK tandem SH2 domains; binding, inhibitor, TR-FRET; together with: FITC-FCER1G phospho-ITAM peptide): 3.57 ± 0.2 µM
CCOC(=O)c1ccccc1-c1c2ccc(=O)cc-2oc2cc(OCCCNC(=O)C(OC(=O)c3ccc(O)c(OC)c3)C3CC3)ccc12 (stereo not shown) — IC50 (ALOX15 (Homo sapiens, UniProt P16050); enzyme activity, inhibitor, absorbance): 43.3 µM
CCn1nc(Cl)c2c1-c1cnc(N)c(c1)O[C@H](C)c1cc(F)ccc1-c1nn(C)cc1C2 — IC50 (FRK (Homo sapiens, UniProt P42685); enzyme activity, inhibitor, radiometric): 0.895 µM
O=C(Nc1cc(-c2ccc(Cl)cc2)[nH]n1)C1CC1 — IC50 (crk3 with CYC6; enzyme activity, inhibitor, radiometric; together with: Leishmania major CYC6 cyclin, 1 µM ATP): 1.5 µM
Cc1cccc(NS(=O)(=O)c2c(C)[nH]c(C)c2C(=O)N2CCCC2)c1 — IC50 (DRD2 (Homo sapiens, UniProt P14416)): > 100 µM
CC(C)(C)n1ncc2c(=O)n(Cc3cccc(F)c3)c(NCc3ccccn3)nc21 — IC50 (PDE1C; enzyme activity, inhibitor, radiometric): 0.0039 µM
Brc1cccc(-c2cc(CN3c4ccccc4C=Cc4ccccc43)on2)c1 — IC50 (Urease; enzyme activity, inhibitor): 6.77 µM
COc1cc(OC)c2c(=O)cc(-c3cc(C)c(OCCCN4CCN(C)CC4)c(C)c3)oc2c1 — IC50 (Bromodomain-containing protein 3, BD1 (BRD3, Homo sapiens, UniProt Q15059); cell-free assay, TR-FRET): 1.72 µM
CN1CCC(n2cc(-c3cccc4cc(NC(=O)Nc5ccc(C(=O)NO)cc5)ccc34)cn2)CC1 — IC50 (SNCA pre-formed fibrils; binding to RAGE, inhibitor, ELISA; together with: FLAG-α-syn PFFs 100 nM): 1 µM
CCN(CC)CC(=O)Nc1cccc(-n2cc(-c3ccc4ccc(-c5cn(-c6cccc(NC(=O)CN(CC)CC)c6)nn5)cc4c3)nn2)c1 — IC50 (Tyrosine-protein kinase SYK, non-phosphorylated (SYK, Homo sapiens, UniProt P43405); enzyme activity, inhibitor): > 10 µM
COC1CN([C@H]2CC[C@H]([C@@]3(C)Oc4c(Cl)cc(C(=O)NCc5c(SC)cc(C)[nH]c5=O)c(C)c4O3)CC2)C1 — log2 fold change (RNA-seq, item: PCP4L1; human, whole blood; dose not given, 24 h; baseline: pretreatment baseline): 1.17
Cc1cc(-c2ccc(S(=O)(=O)C3CC(C(=O)NC4(C#N)CC4)N(C(=O)C4(C(F)(F)F)CC4)C3)c(C(F)(F)F)c2)ccn1 (stereo not shown) — IC50 (CAPN1 (Homo sapiens, UniProt P07384)): > 10 µM
CC(C)(COC(=O)/C=C/c1ccc([N+](=O)[O-])cc1)CC1=C(O)C(=O)c2ccccc2C1=O — IC50 (MAL12; enzyme activity, inhibitor): 31.9 µM
C[C@@]1(C(=O)O)[C@@H](O)CC[C@]2(C)c3cc4c(cc3CC[C@@H]12)[nH]c1ccc(S(=O)(=O)n2c3ccccc3c3cc5c(cc32)CC[C@H]2[C@](C)(C(=O)O)[C@@H](O)CC[C@]52C)cc14 — IC50 (CA1 (Homo sapiens, UniProt P00915); enzyme activity, inhibitor, absorbance): 3 µM
CN1CCCN(c2cnc3c(cc(C(=O)NCc4ccc(Cl)cc4)c(=O)n3CC(=O)N3CC(C)(F)C3)n2)C1=O — IC50 (DNA polymerase catalytic subunit; enzyme activity; at least duplicate): 4.1 µM
COc1cc(OC)c(/N=N/c2ccc(C(=O)NO)cc2)c(OC)c1 — IC50 (Urease; enzyme activity, inhibitor, absorbance; pH 7.3): 19 µM
N#Cc1ccc(-c2cc(CN3c4ccccc4C=Cc4ccccc43)on2)cc1 — IC50 (Urease; enzyme activity, inhibitor): 8.19 µM
CC(C)(C)n1ncc2c(=O)n(Cc3cccc(F)c3)c(NCc3ccc(F)cn3)nc21 — IC50 (PDE2A (Homo sapiens, UniProt O00408); enzyme activity, inhibitor): > 10 µM
O=C(Nc1cc(Cc2ccccc2)[nH]n1)c1ccccc1 — IC50 (crk3 with CYC6; enzyme activity, inhibitor, radiometric; together with: Leishmania major CYC6 cyclin, 1 µM ATP): 9.2 µM
CCC(C)C(NC(=O)C(Cc1ccccc1)NC(=O)c1ccc(C(C)(C)C)cc1)C(=O)NC(CC(C)C)C(=O)NC(CCCCN(C)C1CC2CCC1C2)C(=O)NC(CO)C(N)=O (stereo not shown) — IC50 (Chromobox protein homolog 7 (Homo sapiens, UniProt O95931); ligand displacement, TR-FRET): > 30 µM
CC(C)(COC(=O)/C=C/c1ccc(Cl)cc1Cl)CC1=C(O)C(=O)c2ccccc2C1=O — IC50 (MAL12; enzyme activity, inhibitor): 10.6 µM
O=C1Nc2c(Br)cccc2/C1=C1/Nc2ccccc2C1=NO — IC50 (AXL (Homo sapiens, UniProt P30530)): > 10 µM
O=C(Nc1cc(-c2c(F)cccc2F)[nH]n1)C1CCC1 — IC50 (crk3 with CYC6; enzyme activity, inhibitor, radiometric; together with: Leishmania major CYC6 cyclin, 1 µM ATP): 1.3 µM
Cc1n[nH]c(=S)n1C — IC50 (SYK tandem SH2 domains; binding, inhibitor, TR-FRET; together with: FITC-FCER1G phospho-ITAM peptide): > 100 µM
Cc1nn(-c2cccc(N)c2)c(=O)c2cnc(Nc3ccc(N4CCNCC4)cc3)nc12 — IC50 (PAK2 (Homo sapiens, UniProt Q13177); enzyme activity, inhibitor): 3.4 µM
C[C@H](c1ccccc1)N1C(=O)C2=Nc3cccc(Cl)c3CN2C1=S — IC50 (FER (Homo sapiens, UniProt P16591); enzyme activity, inhibitor): 0.487 µM
COc1ccc(Nc2cc(NC3CC3)n3ncc(C#N)c3n2)cc1 — IC50 (SGK1 (Homo sapiens, UniProt O00141); inhibitor): 3.6 µM
CC(C)C[C@H](NC(=O)[C@H](Cc1ccc(CN)cc1)NC(=O)[C@H](Cc1ccccc1)N=[N+]=[N-])C(=O)N[C@@H](CC1CCCC2CCCCC21)C(=O)[C@@]1(C)CO1 (stereo partly shown) — IC50 (Proteasome subunit beta type-10; enzyme activity, inhibitor; lysate): 0.0955 µM
Cc1cncn1Cc1ccc(Nc2cccc(F)c2)cc1 — IC50 (QPCT (Homo sapiens, UniProt Q16769)): 0.39 µM
COc1ccc(OC)c(CN2CCN(Cc3cc(OC)c(O)c(OC)c3)CC2)c1 — IC50 (Alpha-synuclein, fibrils (SNCA, Homo sapiens, UniProt P37840); fibril growth, conformation-specific ELISA; 20 h, together with: 6 µM monomer): 4 ± 2 µM
CC(C)(C)n1ncc2c(=O)n(Cc3cccc(F)c3)c(NCc3ccc(Cl)cn3)nc21 — IC50 (PDE1C; enzyme activity, inhibitor, radiometric): 0.0023 µM
CC(=O)N(C)CCN1CCN(c2cnc3c(cc(C(=O)NCc4ccc(Cl)cc4)c(=O)n3CC(=O)N3CC(C)(F)C3)n2)C1=O — IC50 (DNA polymerase catalytic subunit; enzyme activity; at least duplicate): 0.84 µM
CCN(CC)Cc1ccc2cc(NC(=O)Nc3ccc(C(=O)NO)cc3)ccc2c1 — IC50 (SNCA pre-formed fibrils; binding to mouse LAG3 D1, inhibitor, ELISA; together with: FLAG-α-syn PFFs 100 nM): 8.05 µM
O=[N+]([O-])c1ccccc1-c1cc(CN2c3ccccc3C=Cc3ccccc32)on1 — IC50 (Urease; enzyme activity, inhibitor): > 27 µM
CC(C)C[C@H](NC(=O)[C@H](Cc1ccc(CN)cc1)NC(=O)[C@H](Cc1ccccc1)N=[N+]=[N-])C(=O)N[C@H](C(=O)[C@@]1(C)CO1)C1CCCCC1 — IC50 (Proteasome subunit beta type-10; inhibitor, biochemical): 4.84 µM
Fc1cccc(-c2cc(CN3c4ccccc4C=Cc4ccccc43)on2)c1 — IC50 (Urease; enzyme activity, inhibitor): 9.17 µM
C#Cc1ccc2nc(C3(NC(=O)c4cc(-c5ccc(F)cc5F)on4)CCN(C(=N)c4ccc([N+](=O)[O-])o4)CC3)[nH]c2c1 — IC50 (STING1 (Homo sapiens, UniProt Q86WV6, H232R); reporter gene): 1.28 µM
Cc1cc(C)nc(NC(=S)N2CCN(c3ccc(C(F)(F)F)cn3)CC2)c1 — IC50 (HSD17B4 (Homo sapiens, UniProt P51659); enzyme activity, inhibitor): > 57 µM
CC(=O)c1cnc2ccc(-c3cc(Cl)c(O)c(Cl)c3)nc2c1N[C@H]1CC[C@H](CN(C)C)CC1 — IC50 (Receptor-like protein kinase FERONIA (FER, Arabidopsis thaliana, UniProt Q9SCZ4, Y612A); kinase activity, inhibitor, ADP-Glo; 60 min, together with: 50 µM ATP): 1.44 µM
Cc1ccc(N=C2CC(=O)c3sc(C)nc3C2=O)cc1 — IC50 (SETD2 (Homo sapiens, UniProt Q9BYW2); enzyme activity, inhibitor): 2.3 µM
CC(=O)Nc1cc(Cc2ccccc2)[nH]n1 — IC50 (crk3 with CYC6; enzyme activity, inhibitor, radiometric; together with: Leishmania major CYC6 cyclin, 1 µM ATP): 64 µM
COc1cc2c(cc1NS(=O)(=O)c1ccc(Br)cc1C)n(C)c(=O)n2C — IC50 (Transcription initiation factor TFIID subunit 1-like, BD2 (TAF1L, Homo sapiens, UniProt Q8IZX4)): 16.5 µM
CC(=O)N[C@H]1[C@H]([C@H](O)[C@H](O)CNC(=O)c2ccc(-c3ccccc3)cc2)O[C@@](OCc2cn(CC(O)Cn3c([N+](=O)[O-])cnc3C)nn2)(C(=O)O)C[C@@H]1O (stereo partly shown) — IC50 (CD22 (Homo sapiens, UniProt P20273); ligand binding, inhibitor, competitive bead binding flow cytometry; together with: 6'SLN(Gc)-PAA-biotin beads): 0.38 ± 0.02 µM
CN1CCN(c2ccc3cc(COC(=O)Nc4cccc(C(=O)NO)c4)ccc3c2)CC1 — IC50 (SNCA pre-formed fibrils; binding to RAGE, inhibitor, ELISA; together with: FLAG-α-syn PFFs 100 nM): 0.749 µM
COc1ccc2c(c1)CN(C(=O)CCN1CCC(Cc3ccccc3)CC1)CCS2 — IC50 (Potassium voltage-gated channel subfamily KQT member 1, with KCNE1 (KCNQ1, Homo sapiens, UniProt P51787); IKs current, inhibitor, whole-cell patch clamp; stable cell line): 28.1 µM
Cn1cc(-c2ccc3cc(NC(=O)Nc4cccc(C(=O)NO)c4)ccc3c2)cn1 — IC50 (SNCA pre-formed fibrils; binding to mouse LAG3 D1, inhibitor, ELISA; together with: FLAG-α-syn PFFs 100 nM): 8.12 µM
COc1cc(O)c2c(c1)CCC21CCC(=O)CC1 — IC50 (rat intestinal maltase; inhibitor; rat intestinal acetone powder; 10 min, 37 °C, together with: maltose 10 mM): 1350 ± 170 µM
Cc1cc(C)c(CNC(=O)c2c(C)n(C(C)C3CCC(NC4(C)COC4)CC3)c3ccccc23)c(=O)[nH]1 (stereo not shown) — IC50 (Histone-lysine N-methyltransferase EZH2, PRC2 pentameric complex (EZH2, Homo sapiens, UniProt Q15910); enzyme activity, inhibitor; together with: H3K27me3 activating peptide): 0.00019 µM
COc1cc(C(c2c(O)c3ccccc3oc2=O)c2c(O)c3ccccc3oc2=O)ccc1OCc1cn(CC(=O)Nc2ccccc2)nn1 — IC50 (MAL12; enzyme activity, inhibitor): 37.1 µM

For quick reference, copied from above:
COc1ccc(OC)c(CN2CCN(Cc3cc(OC)c(O)c(OC)c3)CC2)c1 — IC50 (Alpha-synuclein, fibrils (SNCA, Homo sapiens, UniProt P37840); fibril growth, conformation-specific ELISA; 20 h, together with: 6 µM monomer): 4 ± 2 µM
CC(C)(C)n1ncc2c(=O)n(Cc3cccc(F)c3)c(NCc3ccc(Cl)cn3)nc21 — IC50 (PDE1C; enzyme activity, inhibitor, radiometric): 0.0023 µM
CC(=O)N(C)CCN1CCN(c2cnc3c(cc(C(=O)NCc4ccc(Cl)cc4)c(=O)n3CC(=O)N3CC(C)(F)C3)n2)C1=O — IC50 (DNA polymerase catalytic subunit; enzyme activity; at least duplicate): 0.84 µM
CCN(CC)Cc1ccc2cc(NC(=O)Nc3ccc(C(=O)NO)cc3)ccc2c1 — IC50 (SNCA pre-formed fibrils; binding to mouse LAG3 D1, inhibitor, ELISA; together with: FLAG-α-syn PFFs 100 nM): 8.05 µM
